# Published values collected from several papers.
# Protocols differ between the studies behind these lines.
# Cell line: NCI-H460
Compound,effect on,method,concentration,time,reference,quantity,value
COc1cc(CNC(=O)C[C@H](C)CCC=C(C)C)ccc1OCc1cn(-c2ccccc2[N+](=O)[O-])nn1,,SRB,10 µM,48 h,,growth percent,84.2%
CC(=O)OC[C@H]1O[C@@H](Sc2sc(C(=O)c3ccc(C)cc3)c(N)c2-c2nc3ccccc3s2)[C@H](OC(C)=O)[C@@H](OC(C)=O)[C@H]1OC(C)=O,,SRB,10 µM,48 h,untreated,growth,108%
COc1cc(CNC(=O)C[C@H](C)CCC=C(C)C)ccc1OCc1cn(-c2ccccc2Cl)nn1,,SRB,10 µM,48 h,,growth percent,78.4%
CC1=C(C2=C(C)C(=O)c3c(cc(O)c(O)c3C(C)C)C2=O)C(=O)c2cc(O)c(O)c(C(C)C)c2C1=O (racemic),cell growth or viability,ATP luminescence,,72 h,,EC50,710 nM
CC(=O)O[C@@H]1CC[C@@]2(C)[C@@H](CC[C@]3(C)[C@@H]2C(=O)C=C2[C@@H]4[C@@H](C)[C@H](C)CC[C@]4(C)CC[C@]23C)[C@@]1(C)C(=O)NCCNC(=O)CCCCBr,cell growth or viability,MTT,,48 h,,IC50,9360 nM
CC(C)C1=C(O)C(=O)C2=C(C1=O)[C@H](O)[C@@H](O)[C@H]1C(C)(C)CCC[C@]21C,cell growth or viability,MTT,,72 h,,GI50,25000 nM
CC(=O)O[C@@H]1CC[C@@]2(C)[C@@H](CC[C@]3(C)[C@@H]2C(=O)C=C2[C@@H]4[C@@H](C)[C@H](C)CC[C@]4(C)CC[C@]23C)[C@@]1(C)C(=O)NCCNC(=O)CCCCCCCCCC[P+](c1ccccc1)(c1ccccc1)c1ccccc1,cell growth or viability,MTT,,48 h,,IC50,2310 nM
COc1cc(CNC(=O)C[C@H](C)CCC=C(C)C)ccc1O,,SRB,10 µM,48 h,,growth percent,104%
CC(Cc1ccc(Cl)cc1)=C(c1ccc(Cl)cc1)c1ccc(OCCN(C)C)cc1,cell growth or viability,SRB,,,,GI50,1220 nM
CCC1=C(CC)C2=[N+]3C1=Cc1c(CC)c(CC)c4[n]1[Ir-3]31([C]#[N+]c3ccc(OC)cc3)([C]#[N+]c3ccc(OC)cc3)[n]3c(c(CC)c(CC)c3=CC3=[N+]1C(=C4)C(CC)=C3CC)=C2.F[B-](F)(F)F,,,,,IC50 dark over IC50 light,phototoxicity index,24.2
COc1ccc(C2=Nn3c(NN=C4C(=O)N(Cc5ccccc5)c5ccc(Cl)cc54)nnc3SC2)cc1,cell growth or viability,SRB,10 µM,,,inhibition,51%
CCC1=C(CC)C2=[N+]3C1=Cc1c(CC)c(CC)c4[n]1[Ir-3]31([Cl])([C]#[O+])[n]3c(c(CC)c(CC)c3=CC3=[N+]1C(=C4)C(CC)=C3CC)=C2,,,,,IC50 dark over IC50 light,phototoxicity index,> 2.5
CC(C)C1=C(O)C(=O)C2=C(C1=O)[C@H](OC=O)[C@@H](O)[C@H]1C(C)(C)CCC[C@]21C,cell growth or viability,MTT,,72 h,,GI50,14900 nM
COc1cc(CNC(=O)C[C@H](C)CCC=C(C)C)ccc1OCc1cn(-c2cccc(C(F)(F)F)c2)nn1,,SRB,10 µM,48 h,,growth percent,14.6%
CC(=O)OC[C@H]1O[C@@H](Sc2sc(C(=O)c3ccc(Br)cc3)c(N)c2-c2nc3ccccc3s2)[C@H](OC(C)=O)[C@@H](OC(C)=O)[C@H]1OC(C)=O,,SRB,10 µM,48 h,untreated,growth,107%
COc1cc(CNC(=O)C[C@H](C)CCC=C(C)C)ccc1OCc1cn(-c2cccc([N+](=O)[O-])c2)nn1,,SRB,10 µM,48 h,,growth percent,62.9%
CC/C=C\C/C=C\C/C=C\C/C=C\C/C=C\C/C=C\CCC(=O)Nc1ccn(C2OC(CO)C(O)C2(F)F)c(=O)n1 (centres unmarked),cell growth or viability,SRB,,,,GI50,15.3 nM
